Measured values collected from several papers.
Each numbered part is a random draw from the data of one study; scales do not carry over between parts.
Sequence of UniProt P49683 (whole entry, looked up): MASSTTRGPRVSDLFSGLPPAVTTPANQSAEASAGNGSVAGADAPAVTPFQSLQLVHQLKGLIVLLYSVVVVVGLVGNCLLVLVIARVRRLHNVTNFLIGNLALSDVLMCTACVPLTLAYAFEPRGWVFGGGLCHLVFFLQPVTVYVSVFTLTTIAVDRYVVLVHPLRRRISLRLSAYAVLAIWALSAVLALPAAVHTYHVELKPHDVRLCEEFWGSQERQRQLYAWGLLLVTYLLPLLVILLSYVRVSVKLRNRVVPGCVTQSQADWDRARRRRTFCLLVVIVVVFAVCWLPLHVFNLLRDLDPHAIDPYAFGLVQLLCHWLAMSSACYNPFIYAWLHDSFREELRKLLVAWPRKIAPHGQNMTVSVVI
Sequence of UniProt P54760 (whole entry, looked up): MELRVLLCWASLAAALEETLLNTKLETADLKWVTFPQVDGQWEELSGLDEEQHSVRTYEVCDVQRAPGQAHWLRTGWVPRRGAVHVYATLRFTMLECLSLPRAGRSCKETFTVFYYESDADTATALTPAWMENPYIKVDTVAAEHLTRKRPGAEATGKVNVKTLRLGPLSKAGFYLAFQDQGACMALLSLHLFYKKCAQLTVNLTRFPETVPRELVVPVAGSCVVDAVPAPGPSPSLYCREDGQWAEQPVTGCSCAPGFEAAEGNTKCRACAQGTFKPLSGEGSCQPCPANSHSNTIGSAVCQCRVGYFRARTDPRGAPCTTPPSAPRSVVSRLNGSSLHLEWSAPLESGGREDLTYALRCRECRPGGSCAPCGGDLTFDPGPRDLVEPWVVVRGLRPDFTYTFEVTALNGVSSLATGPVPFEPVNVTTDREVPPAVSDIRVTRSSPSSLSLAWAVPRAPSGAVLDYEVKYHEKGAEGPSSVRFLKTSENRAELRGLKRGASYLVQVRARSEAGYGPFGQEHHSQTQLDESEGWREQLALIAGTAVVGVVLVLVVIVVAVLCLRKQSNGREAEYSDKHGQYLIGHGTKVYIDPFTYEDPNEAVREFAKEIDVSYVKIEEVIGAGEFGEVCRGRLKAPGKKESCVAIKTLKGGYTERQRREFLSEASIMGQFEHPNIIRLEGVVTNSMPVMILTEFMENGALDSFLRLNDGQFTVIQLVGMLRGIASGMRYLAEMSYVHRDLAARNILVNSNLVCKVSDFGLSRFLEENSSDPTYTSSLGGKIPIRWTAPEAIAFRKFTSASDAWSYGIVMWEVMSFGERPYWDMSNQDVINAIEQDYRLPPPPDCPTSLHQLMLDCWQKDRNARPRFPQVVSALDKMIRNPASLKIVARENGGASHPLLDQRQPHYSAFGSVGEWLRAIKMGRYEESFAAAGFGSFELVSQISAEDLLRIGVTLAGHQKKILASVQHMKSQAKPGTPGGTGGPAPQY
Sequence of UniProt Q8IY84 (whole entry, looked up): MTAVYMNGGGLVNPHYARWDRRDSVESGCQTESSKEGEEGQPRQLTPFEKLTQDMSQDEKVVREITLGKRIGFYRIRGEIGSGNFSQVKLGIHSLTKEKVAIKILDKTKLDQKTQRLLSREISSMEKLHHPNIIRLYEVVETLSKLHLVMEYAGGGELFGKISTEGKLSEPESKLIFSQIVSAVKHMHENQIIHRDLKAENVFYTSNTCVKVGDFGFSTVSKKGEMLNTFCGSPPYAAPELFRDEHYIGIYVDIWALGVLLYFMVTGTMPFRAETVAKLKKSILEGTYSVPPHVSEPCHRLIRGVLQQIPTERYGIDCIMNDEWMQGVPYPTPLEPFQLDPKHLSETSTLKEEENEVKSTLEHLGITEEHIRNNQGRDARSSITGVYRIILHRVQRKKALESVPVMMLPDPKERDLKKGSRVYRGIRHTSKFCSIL
Sequence of UniProt Q8NFJ5 (whole entry, looked up): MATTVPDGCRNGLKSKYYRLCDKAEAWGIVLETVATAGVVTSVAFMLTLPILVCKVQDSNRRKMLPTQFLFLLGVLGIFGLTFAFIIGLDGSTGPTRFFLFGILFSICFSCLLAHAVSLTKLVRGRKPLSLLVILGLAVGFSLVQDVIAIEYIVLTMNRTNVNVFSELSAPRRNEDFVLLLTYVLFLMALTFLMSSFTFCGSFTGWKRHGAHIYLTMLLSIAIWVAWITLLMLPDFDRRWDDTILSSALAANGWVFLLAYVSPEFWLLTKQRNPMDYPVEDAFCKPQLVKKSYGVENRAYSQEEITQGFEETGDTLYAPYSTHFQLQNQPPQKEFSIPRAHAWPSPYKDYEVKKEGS
Sequence of UniProt P54762 (whole entry, looked up): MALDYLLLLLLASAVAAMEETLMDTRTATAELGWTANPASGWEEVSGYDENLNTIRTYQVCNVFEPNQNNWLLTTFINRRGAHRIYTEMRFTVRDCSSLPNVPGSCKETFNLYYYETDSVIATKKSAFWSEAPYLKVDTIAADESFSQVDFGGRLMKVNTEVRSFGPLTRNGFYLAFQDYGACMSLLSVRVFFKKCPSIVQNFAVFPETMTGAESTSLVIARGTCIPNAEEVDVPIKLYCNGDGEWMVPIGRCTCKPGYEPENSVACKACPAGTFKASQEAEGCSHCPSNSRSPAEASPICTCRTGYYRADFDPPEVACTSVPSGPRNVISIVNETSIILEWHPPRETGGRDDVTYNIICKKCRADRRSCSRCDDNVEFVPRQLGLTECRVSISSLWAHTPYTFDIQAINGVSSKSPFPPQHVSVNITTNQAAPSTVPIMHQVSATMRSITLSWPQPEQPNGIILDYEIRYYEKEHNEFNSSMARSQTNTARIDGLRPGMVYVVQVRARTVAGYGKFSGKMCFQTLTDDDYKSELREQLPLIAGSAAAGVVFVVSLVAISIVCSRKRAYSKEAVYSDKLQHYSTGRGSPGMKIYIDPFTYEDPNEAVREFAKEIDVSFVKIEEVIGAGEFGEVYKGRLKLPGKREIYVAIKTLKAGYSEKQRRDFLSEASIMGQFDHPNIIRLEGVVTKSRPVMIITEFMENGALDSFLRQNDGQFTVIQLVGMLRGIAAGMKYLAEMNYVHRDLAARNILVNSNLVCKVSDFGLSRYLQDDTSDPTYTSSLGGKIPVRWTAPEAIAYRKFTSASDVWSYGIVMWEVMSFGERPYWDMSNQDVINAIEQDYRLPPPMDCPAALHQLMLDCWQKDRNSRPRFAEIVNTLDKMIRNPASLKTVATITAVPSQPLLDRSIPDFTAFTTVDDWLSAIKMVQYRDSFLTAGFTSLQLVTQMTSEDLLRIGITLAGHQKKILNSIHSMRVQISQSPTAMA
Sequence of UniProt O15530 (whole entry, looked up): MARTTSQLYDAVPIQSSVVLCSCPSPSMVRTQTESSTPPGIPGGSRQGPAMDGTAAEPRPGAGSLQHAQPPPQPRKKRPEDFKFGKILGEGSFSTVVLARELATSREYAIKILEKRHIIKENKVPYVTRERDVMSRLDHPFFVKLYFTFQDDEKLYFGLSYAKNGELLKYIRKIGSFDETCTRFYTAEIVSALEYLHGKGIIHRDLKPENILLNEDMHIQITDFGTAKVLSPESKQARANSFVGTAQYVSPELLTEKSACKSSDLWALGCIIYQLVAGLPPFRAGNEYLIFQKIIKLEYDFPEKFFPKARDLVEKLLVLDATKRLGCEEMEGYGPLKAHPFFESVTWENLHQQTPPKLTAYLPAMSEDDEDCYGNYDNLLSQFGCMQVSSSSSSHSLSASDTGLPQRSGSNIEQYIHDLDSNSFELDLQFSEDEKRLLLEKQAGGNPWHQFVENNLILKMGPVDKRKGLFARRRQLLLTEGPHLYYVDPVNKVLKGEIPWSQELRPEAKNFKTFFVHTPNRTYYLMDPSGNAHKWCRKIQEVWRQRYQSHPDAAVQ
Sequence of UniProt Q96PF2 (whole entry, looked up): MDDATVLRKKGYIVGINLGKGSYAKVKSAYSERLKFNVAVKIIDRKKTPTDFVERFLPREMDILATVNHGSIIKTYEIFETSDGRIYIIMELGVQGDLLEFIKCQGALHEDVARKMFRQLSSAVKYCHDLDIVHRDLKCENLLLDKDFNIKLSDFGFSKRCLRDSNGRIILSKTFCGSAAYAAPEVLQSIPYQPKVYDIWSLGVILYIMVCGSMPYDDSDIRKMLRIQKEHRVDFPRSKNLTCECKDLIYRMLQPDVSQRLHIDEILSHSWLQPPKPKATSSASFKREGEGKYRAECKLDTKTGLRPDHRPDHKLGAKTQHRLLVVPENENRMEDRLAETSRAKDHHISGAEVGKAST
Sequence of UniProt P30291 (whole entry, looked up): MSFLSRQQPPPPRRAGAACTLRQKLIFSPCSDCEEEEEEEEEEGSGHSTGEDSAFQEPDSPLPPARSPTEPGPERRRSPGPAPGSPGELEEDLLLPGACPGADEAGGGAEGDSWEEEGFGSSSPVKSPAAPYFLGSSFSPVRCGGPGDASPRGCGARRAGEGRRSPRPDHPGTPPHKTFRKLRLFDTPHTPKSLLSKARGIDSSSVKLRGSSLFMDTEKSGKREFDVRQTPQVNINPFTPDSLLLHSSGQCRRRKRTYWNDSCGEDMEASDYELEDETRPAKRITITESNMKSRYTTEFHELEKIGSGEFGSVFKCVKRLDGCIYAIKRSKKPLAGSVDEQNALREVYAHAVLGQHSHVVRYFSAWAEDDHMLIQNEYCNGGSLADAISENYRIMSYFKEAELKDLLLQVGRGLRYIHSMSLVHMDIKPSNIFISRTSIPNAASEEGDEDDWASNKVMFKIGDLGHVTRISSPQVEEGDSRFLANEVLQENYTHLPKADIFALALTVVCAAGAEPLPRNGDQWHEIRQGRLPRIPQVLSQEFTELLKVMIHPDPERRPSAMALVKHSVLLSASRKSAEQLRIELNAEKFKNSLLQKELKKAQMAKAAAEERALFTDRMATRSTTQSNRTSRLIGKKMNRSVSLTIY
Sequence of UniProt Q7Z602 (whole entry, looked up): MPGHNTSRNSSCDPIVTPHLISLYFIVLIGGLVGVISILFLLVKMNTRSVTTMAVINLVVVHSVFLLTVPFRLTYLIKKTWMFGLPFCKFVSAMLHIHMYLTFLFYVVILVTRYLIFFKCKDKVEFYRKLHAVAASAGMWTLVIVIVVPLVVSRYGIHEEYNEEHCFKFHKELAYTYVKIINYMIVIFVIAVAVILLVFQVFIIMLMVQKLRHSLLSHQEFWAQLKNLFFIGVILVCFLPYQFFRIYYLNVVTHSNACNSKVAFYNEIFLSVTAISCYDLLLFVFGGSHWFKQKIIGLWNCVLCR

Set 1
Compound: CC(C)S(=O)(=O)c1ccc2nccc(Nc3ccc4sc(C5CCCC5)nc4c3)c2c1.Cl
Read-out: kinase activity
Mode: inhibitor
Concentration: 1 µM
It gave 89% for remaining activity (MAPKAPK5 (Homo sapiens, UniProt Q8IW41)).
The remaining activity was 112% (MYLK2 (Homo sapiens, UniProt Q9H1R3)).
For BRSK2 (Homo sapiens, UniProt Q8IWQ3): remaining activity read 104%.
The remaining activity was 103% (CLK2 (Homo sapiens, UniProt P49760)).
It gave 131% for remaining activity (EPHA3 (Homo sapiens, UniProt P29320)).
It gave 113% for remaining activity (LRRK2 (Homo sapiens, UniProt Q5S007)).
PTK2 (Homo sapiens, UniProt Q05397) — remaining activity: 95%.
The remaining activity was 95% (NTRK1 (Homo sapiens, UniProt P04629)).
For PRKD1 (Homo sapiens, UniProt Q15139): remaining activity read 110%.
PRKCQ (Homo sapiens, UniProt Q04759) — remaining activity: 97%.
MAK (Homo sapiens, UniProt P20794) — remaining activity: 109%.
The remaining activity was 105% (CLK1 (Homo sapiens, UniProt P49759)).
For MAP4K5 (Homo sapiens, UniProt Q9Y4K4): remaining activity read 99%.
For NIM1K (Homo sapiens, UniProt Q8IY84): remaining activity read 101%.
STK11 (Homo sapiens, UniProt Q15831) — remaining activity: 105%.
The remaining activity was 102% (GRK1 (Homo sapiens, UniProt Q15835)).
It gave 114% for remaining activity (NUAK2 (Homo sapiens, UniProt Q9H093)).
For FGFR3 (Homo sapiens, UniProt P22607): remaining activity read 92%.
It gave 86% for remaining activity (WNK1 (Homo sapiens, UniProt Q9H4A3)).

Set 2
SMILES: CC(C)CN(C)c1nc(N)c(C(=O)N=C(N)N)nc1Cl
Read-out: β-arrestin recruitment
Mode: agonist
Method: PRESTO-Tango
Concentration: 10 µM
Relative to: untreated
CASR (Homo sapiens, UniProt P41180) — “fold over basal”: 0.56.
Adhesion G protein-coupled receptor A2 (ADGRA2, Homo sapiens, UniProt Q96PE1) — “fold over basal”: 0.85.
It gave 0.88 for “fold over basal” (Retinoic acid-induced protein 3 (GPRC5A, Homo sapiens, UniProt Q8NFJ5)).
The “fold over basal” was 0.92 (Probable G-protein coupled receptor 141 (GPR141, Homo sapiens, UniProt Q7Z602)).
The “fold over basal” was 1.23 (FFAR4 (Homo sapiens, UniProt Q5NUL3)).
For HTR2C (Homo sapiens, UniProt P28335): “fold over basal” read 0.71.
It gave 0.88 fold for “fold over basal” (HCRTR2 (Homo sapiens, UniProt O43614)).
For Relaxin receptor 1 (RXFP1, Homo sapiens, UniProt Q9HBX9): “fold over basal” read 0.79.
For P2Y purinoceptor 6 (P2RY6, Homo sapiens, UniProt Q15077): “fold over basal” read 1.63.
For G-protein coupled receptor 78 (GPR78, Homo sapiens, UniProt Q96P69): “fold over basal” read 0.78.
The “fold over basal” was 0.63 (G-protein coupled receptor 83 (GPR83, Homo sapiens, UniProt Q9NYM4)).
It gave 1.11 for “fold over basal” (MCHR1 (Homo sapiens, UniProt Q99705)).
CCR5 (Homo sapiens, UniProt P51681) — “fold over basal”: 0.55.
The “fold over basal” was 0.89 (EDNRB (Homo sapiens, UniProt P24530)).
PRLHR (Homo sapiens, UniProt P49683) — “fold over basal”: 0.99.
For TSHR (Homo sapiens, UniProt P16473): “fold over basal” read 0.54 fold.
GPR32 (Homo sapiens, UniProt O75388) — “fold over basal”: 1.15.
For MC4R (Homo sapiens, UniProt P32245): “fold over basal” read 1.72.
It gave 1.16 for “fold over basal” (GPR4 (Homo sapiens, UniProt P46093)).

Set 3
SMILES: NS(=O)(=O)c1cc(NC(=O)C2(c3ccccc3Cl)CC2)ccc1Oc1cccc(Cl)c1
Concentration: 1 µM
It gave 100% for remaining binding (MAP2K4 (Homo sapiens, UniProt P45985); cell-free assay, competition with immobilised ligand).
For Ribosomal protein S6 kinase alpha-4, N-terminal kinase domain (RPS6KA4, Homo sapiens, UniProt O75676); cell-free assay, competition with immobilised ligand: remaining binding read 70%.
Ribosomal protein S6 kinase alpha-2, N-terminal kinase domain (RPS6KA2, Homo sapiens, UniProt Q15349); cell-free assay, competition with immobilised ligand — remaining binding: 91%.
FLT3 (Homo sapiens, UniProt P36888, D835H); cell-free assay, competition with immobilised ligand — remaining binding: 47%.
It gave 100% for remaining binding (MAP3K1 (Homo sapiens, UniProt Q13233); cell-free assay, competition with immobilised ligand).
For SRPK1 (Homo sapiens, UniProt Q96SB4); cell-free assay, competition with immobilised ligand: remaining binding read 71%.
The remaining binding was 82% (LIM domain kinase 2 (LIMK2, Homo sapiens, UniProt P53671); cell-free assay, competition with immobilised ligand).
Receptor-type tyrosine-protein kinase FLT3, autoinhibited (FLT3, Homo sapiens, UniProt P36888); cell-free assay, competition with immobilised ligand — remaining binding: 70%.
It gave 86% for remaining binding (DYRK1B (Homo sapiens, UniProt Q9Y463); cell-free assay, competition with immobilised ligand).
CDK19 (Homo sapiens, UniProt Q9BWU1); competition binding — remaining binding: 85%.
FLT3 (Homo sapiens, UniProt P36888, D835V/ITD); cell-free assay, competition with immobilised ligand — remaining binding: 100%.
It gave 99% for remaining binding (STK36 (Homo sapiens, UniProt Q9NRP7); cell-free assay, competition with immobilised ligand).
MAP3K4 (Homo sapiens, UniProt Q9Y6R4); cell-free assay, competition with immobilised ligand — remaining binding: 94%.
CSNK1D (Homo sapiens, UniProt P48730); cell-free assay, competition with immobilised ligand — remaining binding: 83%.
BMPR2 (Homo sapiens, UniProt Q13873); cell-free assay, competition with immobilised ligand — remaining binding: 100%.
It gave 100% for remaining binding (MAP3K3 (Homo sapiens, UniProt Q99759); cell-free assay, competition with immobilised ligand).
It gave 100% for remaining binding (MAP4K2 (Homo sapiens, UniProt Q12851); cell-free assay, competition with immobilised ligand).
For DMPK (Homo sapiens, UniProt Q09013); cell-free assay, competition with immobilised ligand: remaining binding read 79%.
The remaining binding was 100% (FGFR1 (Homo sapiens, UniProt P11362); cell-free assay, competition with immobilised ligand).
For SBK1 (Homo sapiens, UniProt Q52WX2); cell-free assay, competition with immobilised ligand: remaining binding read 100%.
It gave 91% for remaining binding (WEE1 (Homo sapiens, UniProt P30291); cell-free assay, competition with immobilised ligand).
For MAP3K19 (Homo sapiens, UniProt Q56UN5); cell-free assay, competition with immobilised ligand: remaining binding read 70%.
The remaining binding was 82% (EPHA7 (Homo sapiens, UniProt Q15375); cell-free assay, competition with immobilised ligand).
It gave 100% for remaining binding (EGFR (Homo sapiens, UniProt P00533, T790M); cell-free assay, competition with immobilised ligand).
It gave 46% for remaining binding (EGFR (Homo sapiens, UniProt P00533, del746-750); cell-free assay, competition with immobilised ligand).

Set 4
Compound: CCN(CC)CCCCN1c2ccccc2Oc2ccc(Cl)cc21
Read-out: enzyme activity
Mode: inhibitor
Concentration: 0.5 µM
Relative to: control
It gave 99% for remaining activity (DYRK3 (Homo sapiens, UniProt O43781)).
For WNK3 (Homo sapiens, UniProt Q9BYP7): remaining activity read 108%.
It gave 99.2% for remaining activity (HIPK4 (Homo sapiens, UniProt Q8NE63)).
STK17A (Homo sapiens, UniProt Q9UEE5) — remaining activity: 96.1%.
ABL1 (Homo sapiens, UniProt P00519) — remaining activity: 107%.
For EPHB4 (Homo sapiens, UniProt P54760): remaining activity read 97.9%.
For RPS6KA5 (Homo sapiens, UniProt O75582): remaining activity read 107%.
For EPHA4 (Homo sapiens, UniProt P54764): remaining activity read 91.9%.
MAP4K4 (Homo sapiens, UniProt O95819) — remaining activity: 104%.
RPS6KA6 (Homo sapiens, UniProt Q9UK32) — remaining activity: 109%.
It gave 111% for remaining activity (PDPK1 (Homo sapiens, UniProt O15530)).
MAPKAPK3 (Homo sapiens, UniProt Q16644) — remaining activity: 105%.
It gave 106% for remaining activity (BLK (Homo sapiens, UniProt P51451)).
The remaining activity was 103% (TSSK2 (Homo sapiens, UniProt Q96PF2)).
Cyclin-dependent kinase 4, with cyclin D3 (CDK4, Homo sapiens, UniProt P11802) — remaining activity: 102%.
EPHB1 (Homo sapiens, UniProt P54762) — remaining activity: 110%.
The remaining activity was 96.8% (Cyclin-dependent kinase 1, with cyclin B (CDK1, Homo sapiens, UniProt P06493)).
For SRMS (Homo sapiens, UniProt Q9H3Y6): remaining activity read 105%.
Cyclin-dependent kinase 6, with cyclin D3 (CDK6, Homo sapiens, UniProt Q00534) — remaining activity: 102%.
For CAMK2B (Homo sapiens, UniProt Q13554): remaining activity read 107%.
The remaining activity was 96.5% (PHKG1 (Homo sapiens, UniProt Q16816)).
HIPK2 (Homo sapiens, UniProt Q9H2X6) — remaining activity: 118%.
AXL (Homo sapiens, UniProt P30530) — remaining activity: 95.2%.
STK16 (Homo sapiens, UniProt O75716) — remaining activity: 95.2%.

For quick reference, copied from above (set 4):
For WNK3 (Homo sapiens, UniProt Q9BYP7): remaining activity read 108%.
It gave 99.2% for remaining activity (HIPK4 (Homo sapiens, UniProt Q8NE63)).
STK17A (Homo sapiens, UniProt Q9UEE5) — remaining activity: 96.1%.
ABL1 (Homo sapiens, UniProt P00519) — remaining activity: 107%.
For EPHB4 (Homo sapiens, UniProt P54760): remaining activity read 97.9%.
For RPS6KA5 (Homo sapiens, UniProt O75582): remaining activity read 107%.
For EPHA4 (Homo sapiens, UniProt P54764): remaining activity read 91.9%.
